Assay results gathered from unrelated publications.
Protocols differ between the studies behind these lines.
Organism: Escherichia coli

`CN(Cc1nn(C)c2nc(N)[nH]c(=O)c2c1=O)c1nnn[nH]1` has an MIC of > 100 µg/mL (microbial growth, broth dilution; BW25113; 18 h).
`COc1c(NC(=O)c2ccc(NC(=O)[C@H](Cc3c[nH]nn3)NC(=O)c3ccc(NC(=O)/C(C)=C/c4ccc(O)cc4)cc3)cc2)ccc(C(=O)Nc2ccc(C(=O)O)c(O)c2)c1O` has an MIC of 0.125 µg/mL (broth microdilution; DSM 1116).
With `CC[C@H]1OC(=O)[C@H](C)C(=O)[C@H](C)[C@@H](O[C@@H]2O[C@H](C)C[C@H](N(C)C)[C@H]2O)[C@](C)(OC)C[C@@H](C)C(=O)[C@H](C)[C@H]2N(CCCCn3cnc(-c4cccnc4)c3)C(=O)O[C@]12C` the MIC was > 32 µg/mL (microbial growth; ATCC25922).
`O=[N+]([O-])c1c(Br)c(Cl)c2cccnc2c1O` gave an MIC of 2 µg/mL (microbial growth, broth dilution; ATCC25922).
The MIC of `Cc1nn(C)c2nc(N)[nH]c(=O)c2c1=O` is reported as 100 µg/mL (microbial growth, broth dilution; BW25113; 18 h).
For `CCCCCCCCn1cc[n+](CCCCCCCCOc2cc(OCCCCCCCC[n+]3ccn(CCCCCCCC)c3)cc(OCCCCCCCC[n+]3ccn(CCCCCCCC)c3)c2)c1.[Br-].[Br-].[Br-]`, the MIC was 2 µM (MC4100).
`CC[C@H](C)[C@H](NC(=O)[C@@H](CCCNC(=N)N)NC(=O)[C@H](CCCNC(=N)N)NC(=O)[C@@H]1CCCN1C(=O)[C@@H]1CCCN1C(=O)[C@H](CCCNC(=N)N)NC(=O)[C@@H]1CCCN1C(=O)[C@H](CCCNC(=N)N)NC(=O)[C@@H]1CCCN1C(=O)[C@H](CC(C)C)NC(=O)[C@H](Cc1ccc(O)cc1)NC(=O)[C@@H]1CCCN1C(=O)[C@@H]1CCCN1C(=O)[C@H](CCCNC(=N)N)NC(=O)[C@H](CC(=O)O)NC(=O)[C@@H](N)C(C)C)C(=O)N[C@@H](Cc1ccc(O)cc1)C(=O)N[C@@H](CC(N)=O)C(=O)N[C@H](CCCNC(=N)N)C(N)=O` gave an MIC of 8 µg/mL (broth microdilution; ATCC 25922; 18 h, 37 °C, 25% MHB2).
With `CCCCCCCCn1cc[n+](CCCCOc2cc(OCCCC[n+]3ccn(CCCCCCCC)c3)cc(OCCCC[n+]3ccn(CCCCCCCC)c3)c2)c1.[Br-].[Br-].[Br-]` the MIC was 0.5 µM (MC4100).
With `CCCC(=O)Oc1c(C)c(OC)c2c(/C=C/c3ccccc3)c(CC)c(=O)oc2c1C` the MIC was 5000 µg/mL (microbial growth, broth dilution; ATCC25922).
The MIC of `COC(C(N)=O)C(NC(=O)c1ccc(NC(=O)c2ccc(C#N)cc2)cc1)C(=O)Nc1ccc(C(=O)Nc2ccc(C(=O)Nc3ccc(C(=O)O)cc3)c(O)c2OC(C)C)cc1` (stereo not shown) is reported as 0.04 µg/mL (BW25113 ΔacrB).
With `COc1c(NC(=O)c2ccc(NC(=O)c3ccc(NC(=O)[C@H](Cc4c[nH]nn4)NC(=O)c4ccc(NC(=O)/C(C)=C/c5ccc(O)cc5)cc4)cc3)c(OC)c2O)ccc(C(=O)O)c1O` the MIC was 0.016 µg/mL (microbial growth, broth dilution).
`N=C(N)NCCC[C@@H]1NC(=O)[C@H](CCCNC(=N)N)NC(=O)[C@@H](CCCNC(=N)N)NC(=O)[C@@H](CCCNC(=N)N)NC(=O)[C@@H](C(c2ccccc2)c2ccccc2)NC(=O)[C@@H](Cc2c[nH]c3ccccc23)NC(=O)[C@@H](C(c2ccccc2)c2ccccc2)NC1=O` has an MIC of 16 µg/mL (ATCC 25922).
`C[C@H](CS)C(=O)Nc1cccc(-c2nn[nH]n2)c1` gave an MIC of < 0.125 µg/mL (broth microdilution, refers to: meropenem; DH5α pET28-lacUV5 control; 200 µM, together with: meropenem).
With `COc1c(C)c(OS(=O)(=O)c2ccccc2)c(C)c(OS(=O)(=O)c2ccccc2)c1C(=O)/C=C/c1ccccc1` the MIC was 5000 µg/mL (microbial growth, broth dilution; ATCC25922).
`COc1ccc2ccc(O)c(/C=N/[C@H]3CCCC[C@H]3/N=C/c3cc(C(C)(C)C)cc(C(C)(C)C)c3O)c2c1` gave an MIC of > 40 µM (microbial growth, broth dilution).
With `COc1cc2c(cc1OC)C1Cc3ccc(OC)c(OC)c3C[NH+]1CC2.[Cl][Fe-]([Cl])([Cl])[Cl]` (stereo not shown) the MIC was > 1600 µM (24 h, 37 °C).
`COc1c(NC(=O)c2ccc(NC(=O)[C@H](Cc3c[nH]nn3)NC(=O)c3ccc(NC(=O)/C(C)=C/c4ccc(O)cc4)cc3)cc2)ccc(C(=O)Nc2ccc(C(=O)O)cc2)c1O` gave an MIC of 0.5 µg/mL (broth microdilution; ciprofloxacin-resistant).
The MIC of `CC[C@H]1OC(=O)[C@H](C)[C@@H](OC(=O)Cc2ccccc2Cl)[C@H](C)[C@@H](O[C@@H]2O[C@H](C)C[C@H](N(C)C)[C@H]2O)[C@](C)(OC)C[C@@H](C)C(=O)[C@H](C)[C@@H](O)[C@]1(C)O` is reported as > 32 µg/mL (microbial growth; ATCC25922).
With `COc1cc(C(=O)Nc2ccc(C(=O)O)c(O)c2)ccc1NC(=O)c1ccc(NC(=O)[C@H](Cc2c[nH]nn2)NC(=O)c2ccc(NC(=O)/C(C)=C/c3ccc(O)cc3)cc2)cc1` the MIC was 0.125 µg/mL (broth microdilution; BW25113).
For `NC[C@H]1O[C@H](O[C@H]2[C@H](O)[C@@H](O[C@H]3O[C@H](CO)[C@@H](O)[C@H](N)[C@H]3O)[C@H](N)C[C@@H]2N)[C@H](O)[C@@H](O)[C@@H]1O`, the MIC was 4 µg/mL (25922, Mueller-Hinton broth; 18 to 24 h, 37 °C).
The MIC of `COc1ccc2ccc(O)c(/C=N/[C@H]3CCCC[C@H]3/N=C/c3cccc(OC)c3O)c2c1` is reported as > 40 µM (microbial growth, broth dilution).
For `C/C(=C\c1ccc(O)cc1)C(=O)Nc1ccc(C(=O)N[C@@H](Cc2c[nH]nn2)C(=O)Nc2ccc(C(=O)Nc3ccc(C(=O)Nc4ccc(C(=O)O)cc4)cc3)cc2)cc1`, the MIC was 0.125 µg/mL (broth microdilution; DSM 1116).
For `CN[C@H](CC(C)C)C(=O)N[C@H]1C(=O)N[C@@H](CC(N)=O)C(=O)N[C@H]2C(=O)N[C@H]3C(=O)N[C@H](C(=O)N[C@H](C(=O)O)c4cc(O)cc(O)c4-c4cc3ccc4O)[C@H](O)c3ccc(c(Cl)c3)Oc3cc2cc(c3O[C@@H]2O[C@H](CO)[C@@H](O)[C@H](O)[C@H]2O[C@H]2C[C@](C)(NCc3ccc(OCc4cn(CC(=O)N[C@H](C(=O)N[C@@H](CCN)C(=O)N[C@H]5CCNC(=O)[C@H]([C@@H](C)O)NC(=O)[C@H](CCN)NC(=O)[C@H](CCN)NC(=O)[C@H](CC(C)C)NC(=O)[C@@H](CC(C)C)NC(=O)[C@H](CCN)NC5=O)[C@@H](C)O)nn4)c(OC)c3)[C@H](O)[C@H](C)O2)Oc2ccc(cc2Cl)[C@H]1O`, the MIC was 16 µg/mL (broth microdilution; ATCC 25922; 18 to 20 h).
For `CCCCCCCC(=O)N[C@@H](CCN)C(=O)N[C@H](C(=O)N[C@@H](CCN)C(=O)N[C@H]1CCNC(=O)[C@H]([C@@H](C)O)NC(=O)[C@H](CCN)NC(=O)[C@H](CCN)NC(=O)[C@H](CCCCCC)NC(=O)[C@@H](Cc2ccccc2)NC(=O)[C@H](CCN)NC1=O)[C@@H](C)O`, the MIC was < 0.125 µg/mL (broth microdilution; ATCC 25922).
`COc1c(NC(=O)c2ccc(NC(=O)c3ccc(NC(=O)[C@H](Cc4c[nH]nn4)NC(=O)c4ccc(NC(=O)/C(C)=C/c5ccc(O)cc5)cc4)cc3)cc2O)ccc(C(=O)O)c1O` gave an MIC of 0.5 µg/mL (broth microdilution; ciprofloxacin-sensitive).
For `CC[C@H]1OC(=O)[C@H](C)[C@@H](OC(=O)Cc2ccccc2[N+](=O)[O-])[C@H](C)[C@@H](O[C@@H]2O[C@H](C)C[C@H](N(C)C)[C@H]2O)[C@](C)(OC)C[C@@H](C)C(=O)[C@H](C)[C@@H](O)[C@]1(C)O`, the MIC was > 32 µg/mL (lpxC).
With `COc1nc(C(=O)O)ccc1NC(=O)c1ccc(NC(=O)c2ccc(NC(=O)[C@H](Cc3c[nH]nn3)NC(=O)c3ccc(NC(=O)/C(C)=C/c4ccc(O)cc4)cc3)cc2)c(OC)c1O` the MIC was 0.5 µg/mL (broth microdilution; BW25113).
The MIC of `CCCCCC[N+](C)(C)CCCCCCCCOc1cc(OCCCCCCCC[N+](C)(C)CCCCCC)cc(OCCCCCCCC[N+](C)(C)CCCCCC)c1.[Br-].[Br-].[Br-]` is reported as 1 µM (MC4100).
For `C#CCNC(=O)[C@H]1NC(=O)[C@H]2NC(=O)[C@H](NC(=O)[C@@H]3NC(=O)[C@H](CC(N)=O)NC(=O)[C@H](NC(=O)[C@@H](CC(C)C)NC)[C@H](O)c4ccc(c(Cl)c4)Oc4cc3cc(c4O[C@@H]3O[C@H](CO)[C@@H](O)[C@H](O)[C@H]3O[C@H]3C[C@](C)(N)[C@H](O)[C@H](C)O3)Oc3ccc(cc3Cl)[C@H]2O)c2ccc(O)c(c2)-c2c(O)cc(O)cc21`, the MIC was 32 µg/mL (broth microdilution; ATCC 35218, cation-adjusted Mueller-Hinton broth; 18 to 20 h, 37 °C, 0.002% polysorbate 80).
With `C#CCO/N=C(\C(=O)N[C@@H]1C(=O)N(S(=O)(=O)O)[C@H]1C)c1csc(N)n1` the MIC was 0.5 µg/mL (microbial growth, agar dilution; ATCC25).
`COc1nc(C(=O)Nc2ccc(C(=O)O)nc2OC)ccc1NC(=O)c1ccc(NC(=O)[C@H](Cc2c[nH]nn2)NC(=O)c2ccc(NC(=O)/C(C)=C/c3ccc(O)cc3)cc2)cc1` gave an MIC of 8 µg/mL (broth microdilution; ciprofloxacin-resistant).
The MIC of `CCC(CC)c1cc(CCN2CCCN(S(=O)(=O)c3cccc4ccccc34)CC2)nc(-c2ccccn2)n1` is reported as > 64 µg/mL (microbial growth, broth dilution; ATCC25922).
`CC[C@H]1OC(=O)[C@H](C)[C@@H](OC(=O)Cc2ccc(Cl)cc2)[C@H](C)[C@@H](O[C@@H]2O[C@H](C)C[C@H](N(C)C)[C@H]2O)[C@](C)(OC)C[C@@H](C)C(=O)[C@H](C)[C@@H](O)[C@]1(C)O` has an MIC of > 32 µg/mL (microbial growth; ATCC25922).
With `C=CCO/N=C(\C(=O)N[C@@H]1C(=O)N(OS(=O)(=O)O)C1(C)C)c1csc(N)n1` the MIC was 0.25 µg/mL (agar dilution; 16-1, ESBL-producing).

For quick reference, copied from above:
The MIC of `COc1ccc2ccc(O)c(/C=N/[C@H]3CCCC[C@H]3/N=C/c3cccc(OC)c3O)c2c1` is reported as > 40 µM (microbial growth, broth dilution).
`N=C(N)NCCC[C@@H]1NC(=O)[C@H](CCCNC(=N)N)NC(=O)[C@@H](CCCNC(=N)N)NC(=O)[C@@H](CCCNC(=N)N)NC(=O)[C@@H](C(c2ccccc2)c2ccccc2)NC(=O)[C@@H](Cc2c[nH]c3ccccc23)NC(=O)[C@@H](C(c2ccccc2)c2ccccc2)NC1=O` has an MIC of 16 µg/mL (ATCC 25922).
With `COc1nc(C(=O)O)ccc1NC(=O)c1ccc(NC(=O)c2ccc(NC(=O)[C@H](Cc3c[nH]nn3)NC(=O)c3ccc(NC(=O)/C(C)=C/c4ccc(O)cc4)cc3)cc2)c(OC)c1O` the MIC was 0.5 µg/mL (broth microdilution; BW25113).
`COc1nc(C(=O)Nc2ccc(C(=O)O)nc2OC)ccc1NC(=O)c1ccc(NC(=O)[C@H](Cc2c[nH]nn2)NC(=O)c2ccc(NC(=O)/C(C)=C/c3ccc(O)cc3)cc2)cc1` gave an MIC of 8 µg/mL (broth microdilution; ciprofloxacin-resistant).
For `CC[C@H]1OC(=O)[C@H](C)[C@@H](OC(=O)Cc2ccccc2[N+](=O)[O-])[C@H](C)[C@@H](O[C@@H]2O[C@H](C)C[C@H](N(C)C)[C@H]2O)[C@](C)(OC)C[C@@H](C)C(=O)[C@H](C)[C@@H](O)[C@]1(C)O`, the MIC was > 32 µg/mL (lpxC).
